Measurements collected from several papers.
Parts stem from different laboratories: compare values within a part only. Positions count from the first letter of the parent shown.

Block 1
Target: RING finger protein unkempt homolog, zinc fingers 1-6, SBP tag (UNK, Homo sapiens, UniProt Q9C0B0, residues 30-357)
Chain of UniProt Q9C0B0 (30-357, looked up): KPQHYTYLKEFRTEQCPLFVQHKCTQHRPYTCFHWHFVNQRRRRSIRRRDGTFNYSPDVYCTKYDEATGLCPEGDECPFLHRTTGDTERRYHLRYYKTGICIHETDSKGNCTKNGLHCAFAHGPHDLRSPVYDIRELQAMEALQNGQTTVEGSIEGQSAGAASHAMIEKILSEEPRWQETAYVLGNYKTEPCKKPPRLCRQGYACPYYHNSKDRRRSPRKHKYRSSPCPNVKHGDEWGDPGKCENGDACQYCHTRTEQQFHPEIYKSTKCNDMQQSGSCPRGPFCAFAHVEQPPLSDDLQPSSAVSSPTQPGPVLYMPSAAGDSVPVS
Technique: RNA Bind-n-Seq
Molecule type: RNA
Matrix: in vitro
Concentration: 100 nM
Setting: RNA with constant flanks, vertebrate orthologous sites, ends assumed
Baseline: input RNA pool
Reading: higher = stronger binding
Measurement: bound/input enrichment
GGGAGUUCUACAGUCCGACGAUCAAACUUGUAUUGGGGCACAUAGUCAACAUGGAAGUAGACCCGCCCCGCUGAUUUGAAAUGUAGAUGUUAAUUAUGUACUGGGGACAGGUUUCUGUCGCUUUACAUCGCUUCCUAGUUUACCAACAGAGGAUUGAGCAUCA: 0.527 ratio
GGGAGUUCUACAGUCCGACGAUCUAAGAACUCUUGCAGUCUUAGAUGUUAUAAAAAAAUAUGUAUCUGAAUUGUAAGAGUUAUUAGUUUUUUUUUUUAAGCACUUGUUUUGGGUACAAGGCAUUUCUUUACUGAAAUUUUAUACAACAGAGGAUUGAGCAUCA: 0.569 ratio
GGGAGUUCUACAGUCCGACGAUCAGGAAAUGCUGGCUGCAAACCCUCAGGAUCGCCCAGAUGCUUUUGAACUAGAACUCAGAUUAGUACAAAUUGCAUUUAAAGAUAGUAGCUGGGAAACGUGACACCUAGGUUAUUUGCAAACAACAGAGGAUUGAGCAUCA: 0.891 ratio
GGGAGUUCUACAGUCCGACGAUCGGCCUCCAACAGGCAAAUUCAGGGAGGAUAGGUUUCAGGGAAUAUAAAUUUAUUUAAUAUUAGUGGUCUUUAAGUAUAAACUUGAUGUAAUUGGUUUGGGAGGGGGCAGUGAUGAUGACUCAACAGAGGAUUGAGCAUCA: 1.4 ratio
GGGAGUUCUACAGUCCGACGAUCUGAGAGAGAGAUUCCUGUGAUUGCUAAUAUUUAAUUUGCUCUUUUUAAGAUAUGUUAAUCUGCAGUUCUUAAUAAAACUGAUAUGCUGGCAUUCCUUACCUAAGGAGGAUUGGCUUUGUACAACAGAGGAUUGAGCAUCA: 0.341 ratio
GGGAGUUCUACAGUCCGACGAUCUCCUCAACUUGUUCUAGUUGGUGAUCCUUCAAAGUUGGGUCAGGUAUUAGUGCUAGGUACUAGCAAUGUUCAUUUCUCUGUUGCCAUUGAUCAGAGAGACAGACGUUAAAAACAGUAAUACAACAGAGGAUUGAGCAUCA: 0.692 ratio
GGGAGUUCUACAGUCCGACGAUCAGCAACCCAAGGAUUCAGGACUGGUUUUACAAAUAUGCCAAGUAGAUAUGGAACUAACAAUAGACAACCAAGACCAUGAUGUACUGUAAAUUAAUUUAUUUUUAUGAGGAAUAUUGACUUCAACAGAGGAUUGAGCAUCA: 1.28 ratio
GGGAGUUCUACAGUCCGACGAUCUAGAUUUUAUAGAUGAACAGGAACAGCAGAGGCUGUUUGAGCUUUGCUUUUUAUAUUUAAAUAGAUACUUUUAUAUGAUGGGUGCUUUGAGUGUAAAUGCAGCAGACUCCAUUUCAGAGGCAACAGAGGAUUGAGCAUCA: 1.78 ratio

Block 2
Target: CEP164, C-terminal peptide (human)
Technique: DHFR complementation, deep sequencing
Matrix: yeast
Setting: single substitutions, model-inferred values
Baseline: wild type
Reading: higher = weaker binding
Measurement: binding free energy change
Starting sequence: PDZK1, PDZ domain 2 (human); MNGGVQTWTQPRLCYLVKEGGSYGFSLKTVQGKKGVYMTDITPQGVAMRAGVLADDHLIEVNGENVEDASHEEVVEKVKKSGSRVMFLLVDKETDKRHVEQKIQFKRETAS; partner HNRVKVYRF
W8C: -0.0803 kcal/mol
C14Q: 1.09 kcal/mol
D56Q: 0.225 kcal/mol
F25E: 1.48 kcal/mol
H57V: -0.656 kcal/mol
V74S: 0.774 kcal/mol
R97G: -0.0911 kcal/mol
N65Q: 0.565 kcal/mol

Other studies, line by line
CCNF: CCNF, cyclin fold, Cln2 fusion (human)
P1: PafA, mature enzyme, eGFP fusion (Elizabethkingia meningoseptica, UniProt Q9KJX5); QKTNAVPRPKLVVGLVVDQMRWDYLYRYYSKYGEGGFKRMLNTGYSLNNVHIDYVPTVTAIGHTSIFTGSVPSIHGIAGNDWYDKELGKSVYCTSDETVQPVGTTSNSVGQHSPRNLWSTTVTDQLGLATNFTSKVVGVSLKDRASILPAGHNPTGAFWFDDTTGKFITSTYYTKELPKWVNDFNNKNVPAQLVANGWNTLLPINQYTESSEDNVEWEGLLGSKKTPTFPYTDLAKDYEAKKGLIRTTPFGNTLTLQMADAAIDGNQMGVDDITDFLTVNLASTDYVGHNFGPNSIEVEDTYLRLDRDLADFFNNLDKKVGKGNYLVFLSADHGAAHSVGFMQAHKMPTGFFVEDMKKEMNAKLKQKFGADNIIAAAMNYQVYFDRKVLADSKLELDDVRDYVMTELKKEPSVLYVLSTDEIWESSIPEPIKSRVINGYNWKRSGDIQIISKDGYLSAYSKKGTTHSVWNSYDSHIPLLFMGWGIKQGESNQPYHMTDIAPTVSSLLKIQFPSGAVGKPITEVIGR
P2: viral docking peptide; KGVKRKLFAEDSS; partner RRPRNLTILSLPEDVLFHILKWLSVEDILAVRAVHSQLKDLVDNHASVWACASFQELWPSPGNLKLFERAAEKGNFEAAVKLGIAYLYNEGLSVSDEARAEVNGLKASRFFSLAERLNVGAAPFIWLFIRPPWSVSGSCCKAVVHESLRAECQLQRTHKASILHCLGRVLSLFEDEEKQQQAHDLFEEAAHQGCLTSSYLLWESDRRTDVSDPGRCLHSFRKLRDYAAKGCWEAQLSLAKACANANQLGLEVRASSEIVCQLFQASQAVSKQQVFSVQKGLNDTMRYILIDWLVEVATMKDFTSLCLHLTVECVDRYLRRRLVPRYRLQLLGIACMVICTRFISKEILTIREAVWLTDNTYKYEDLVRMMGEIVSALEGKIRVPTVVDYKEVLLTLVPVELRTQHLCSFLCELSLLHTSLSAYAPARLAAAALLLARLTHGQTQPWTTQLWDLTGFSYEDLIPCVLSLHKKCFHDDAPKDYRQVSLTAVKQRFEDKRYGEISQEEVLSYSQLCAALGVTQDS
P1 G156A
oxyanion analog dissociation constant (tungstate, free oxyanion; microfluidic competitive inhibition; in vitro, cell-free expressed; not given, derived from inhibition constants, unchanged parent 2230 nM; lower = stronger binding): 1710 nM

P2 D11P
normalised enrichment score (CCNF; yeast growth competition, sequencing; yeast; strong parent motif; baseline: not given, higher = stronger binding): 8.14

P1 Y380G
oxyanion analog dissociation constant (tungstate, free oxyanion; microfluidic competitive inhibition; in vitro, cell-free expressed; not given, derived from inhibition constants, unchanged parent 2230 nM; lower = stronger binding): 2140 nM

P2 A9V
normalised enrichment score (CCNF; yeast growth competition, sequencing; yeast; strong parent motif; baseline: not given, higher = stronger binding): 8.21

For quick reference, copied from above (block 2):
W8C: -0.0803 kcal/mol
N65Q: 0.565 kcal/mol
H57V: -0.656 kcal/mol
